Measurements collected from several papers.
Lines come from different studies, so protocols differ. ± gives the spread as reported.

| Structure (SMILES) | test system | setting | scale | measurement | value |
| --- | --- | --- | --- | --- | --- |
| CCCCCCCCCCCC(=O)OC[C@H]1O[C@@H](n2cnc(N)nc2=O)C[C@@H]1OC(=O)CCCCCCCCCCC | rat, Wistar, male, plasma | intravenous, 21 µmol/kg, 2 min | relative to: over decitabine, same molar dose | plasma concentration ratio | 8 fold |
| CCCCCCCCCCCCCCCC(=O)NCCOCCOCCOCCOCCOCCOCCOCCOCCC(=O)NCCCC[C@H](NC(=O)CNC(=O)[C@@H]1CSSC[C@H](N)C(=O)N[C@@H](Cc2ccc(O)cc2)C(=O)N[C@@H]([C@@H](C)CC)C(=O)N[C@@H](CCC(N)=O)C(=O)N[C@@H](CC(N)=O)C(=O)N1)C(=O)NCC(N)=O | rat | subcutaneous depot, 10 mg/kg | – | plasma to brain unbound ratio | 0.001 |
| C[Si](C)(C)C[C@H](CN)CC(=O)O | Sprague-Dawley rat male, plasma | oral, 30 mg/kg, 1 h | – | plasma concentration | 98.8 µM |
| CC(=O)c1cnc(N)nc1N1CC[C@H]1c1nn2ccc(Cl)c2c(=O)n1-c1ccccc1 | female Wistar rat | oral, 3 mg/kg two doses at 0 and 8 h, 24 h | – | plasma concentration | 150 ± 35 ng/mL |
| O=c1c2cc(Cl)ccc2sc2c(NCc3ccccc3)nc3ccccc3c12 | rat Sprague-Dawley male, plasma | intravenous, 3 mg/kg, 1440 min | – | plasma concentration | 2.84 ± 0.19 ng/mL |
| Nc1nc(Cl)nc2c1ncn2Cc1cc(OCC(F)F)cc(OC(F)F)c1 | Sprague-Dawley rat, plasma | oral, 5.0 mg/kg, 24 h | – | plasma concentration | 275 ng/mL |
| Cc1cc2c(NC(=O)N[C@@H]3CC(C)(C)Oc4c(OC(F)(F)F)cccc43)cccc2cn1 | Sprague-Dawley rat, male | oral, 100 µmol/kg, telemetry study | – | plasma concentration | 15500 ng/mL |
| [2H]C([2H])([2H])C(c1cc2nnc(-c3cc(F)ccc3F)n2nc1OCc1ncnn1C)(C([2H])([2H])[2H])C([2H])([2H])[2H] | GAERS rat, plasma | oral, dose not given, about 2.5 h, exposure at efficacy | – | plasma concentration | < 200 ng/mL |
| Nc1ccc(-c2ccc3ncc4c(=O)n(COP(=O)([O-])[O-])c(=O)n(-c5cccc(C(F)(F)F)c5)c4c3n2)cn1.[Na+].[Na+] | Sprague Dawley rat, plasma | oral, dose not given | – | plasma exposure | not detected |

Repeated from above:
| Structure (SMILES) | test system | setting | scale | measurement | value |
| --- | --- | --- | --- | --- | --- |
| O=c1c2cc(Cl)ccc2sc2c(NCc3ccccc3)nc3ccccc3c12 | rat Sprague-Dawley male, plasma | intravenous, 3 mg/kg, 1440 min | – | plasma concentration | 2.84 ± 0.19 ng/mL |
